Measurements collected from several papers.
Compare with care: the assays were run in different laboratories. ± gives the spread as reported.
Target: Prothrombin (F2, Homo sapiens, UniProt P00734)

| SMILES | assay | conditions | scale | measurement | value |
| --- | --- | --- | --- | --- | --- |
| CC(=O)O[C@@H]1[C@H](OC(C)=O)C[C@@]2(C)[C@@H](CC[C@@H](C)C23Cc2c(O)cc4c(c2O3)CN(CCCCNC(=N)N)C4=O)C1(C)C (stereo partly shown) | enzyme activity, inhibitor, fluorescence | 200 µM |  | inhibition | 72% |
| CC[C@H](C)[C@@H]1NC(=O)[C@@H](NC(=O)[C@H](CCSC)NC=O)CSCc2cccc(c2)CSC[C@@H](C(=O)N[C@H](C(=O)NCC(=O)N[C@@H](CO)C(=O)N[C@@H](CC(C)C)C(=O)NCC(=O)N[C@@H](Cc2c[nH]cn2)C(=O)N[C@@H](Cc2c[nH]cn2)C(=O)N[C@@H](Cc2c[nH]cn2)C(=O)N[C@@H](Cc2c[nH]cn2)C(=O)N[C@@H](Cc2c[nH]cn2)C(=O)N[C@@H](Cc2c[nH]cn2)C(=O)N[C@@H](CCCNC(=N)N)C(=O)N[C@@H](CC(C)C)C(=O)O)C(C)C)NC(=O)[C@H](CCCNC(=N)N)NC(=O)CNC(=O)[C@@H]2CCCN2C(=O)[C@H](CC(=O)O)NC(=O)[C@H](CCCNC(=N)N)NC(=O)[C@H](CO)NC(=O)[C@H](CCCCN)NC(=O)[C@H](CCCCN)NC(=O)[C@H]([C@@H](C)CC)NC1=O | binding, equilibrium ultrafiltration |  | relative to: linear peptide over cyclic peptide | Kd fold increase | 11 to 80 fold |
| CC(C)CCC[C@@H](C)[C@H]1CC[C@H]2[C@@H]3CC=C4C[C@@H](OS(=O)(=O)O)CC[C@]4(C)[C@H]3CC[C@]12C | binding, intrinsic fluorescence titration | pH 7.4, 25 °C |  | Hill coefficient | 1.7 ± 0.3 |
| CC[C@H](C)[C@H](NC(=O)[C@@H]1CSSC[C@H](NC(=O)[C@H](Cc2ccc(O)cc2)NC(=O)CNC(C)=O)C(=O)N[C@@H](CO)C(=O)N[C@@H](CCCNC(=N)N)C(=O)N[C@@H](CO)C(=O)N[C@@H](Cc2ccc(O)cc2)C(=O)N2CCC[C@H]2C(=O)N2CCC[C@H]2C(=O)N[C@@H](C(C)C)C(=O)N1)C(=O)N1CCC[C@H]1C(=O)N[C@@H](CC(=O)O)C(=O)O |  |  | relative to: Ki thrombin over Ki MASP-2 | selectivity ratio | 2170 |
| Cc1ccc(O)c(C(=O)Nc2ccc(CN)cc2)c1 | enzyme activity, inhibitor | 10 µM |  | inhibition | 23.6% |
| CC(C)C[C@H](NC(=O)CNC(=O)CNC(=O)[C@H](CCCNC(=N)N)NC(=O)CNC(=O)[C@@H]1CCCN1C(=O)[C@H](CC(=O)O)NC(=O)[C@H](CS)NC(=O)[C@H](Cc1ccccc1)NC(=O)[C@H](CC(=O)O)NC(=O)[C@H](CC(N)=O)NC(=O)[C@H](Cc1ccc(O)cc1)NC(=O)[C@H](CC(N)=O)NC(=O)[C@H](CCCNC(=N)N)NC(=O)[C@@H](N)CCC(=O)O)C(=O)O | binding, dot blot | 1 h, room temperature, together with: thrombin 250 nM |  | bound fraction | ≥ 25% |
| CC(C)c1ccc(C(=O)Nc2ccc(CN)cc2)c(O)c1 | enzyme activity, inhibitor | 10 µM |  | inhibition | < 20% |
| C#CCC[C@H](NC=O)C(=O)N[C@H]1CSCc2cccc(c2)CSC[C@@H](C(=O)NCC(=O)N[C@@H](CO)C(=O)NCC(=O)N[C@@H](CCON=C(N)N)C(=O)N[C@@H](CC(C)(C)C)C(=O)NCC(=O)N[C@@H](Cc2c[nH]cn2)C(=O)N[C@@H](Cc2c[nH]cn2)C(=O)N[C@@H](Cc2c[nH]cn2)C(=O)N[C@@H](Cc2c[nH]cn2)C(=O)N[C@@H](Cc2c[nH]cn2)C(=O)N[C@@H](Cc2c[nH]cn2)C(=O)N[C@@H](CCON=C(N)N)C(=O)N[C@@H](CC(C)(C)C)C(=O)O)NC(=O)[C@H]([C@@H](C)CC)NC(=O)[C@H](CCON=C(N)N)NC(=O)[C@H](CCC(N)=O)NC(=O)[C@H](C/C=C/CN)NC(=O)[C@H]([C@@H](C)CC)NC(=O)[C@H](C)NC(=O)[C@H](CC(C)(C)C)NC(=O)[C@H](CC(N)=O)NC(=O)[C@H]([C@H](O)CC)NC(=O)[C@H](Cn2oc(=O)[nH]c2=O)NC1=O | binding, equilibrium ultrafiltration |  | relative to: linear peptide over cyclic peptide | Kd fold increase | 11 to 80 fold |
| CC[C@H](C)[C@H](NC(=O)[C@@H]1CSSC[C@H](NC(=O)[C@H](Cc2ccc(O)cc2)NC(=O)CN)C(=O)N[C@@H](CO)C(=O)N[C@@H](CCCNC(=N)N)C(=O)N[C@@H](CO)C(=O)N[C@@H](Cc2ccc(O)cc2)C(=O)N2CCC[C@H]2C(=O)N2CCC[C@H]2C(=O)N[C@@H](C(C)C)C(=O)N1)C(=O)N1CCC[C@H]1C(=O)N[C@@H](CC(=O)O)C(N)=O |  |  | relative to: Ki thrombin over Ki MASP-2 | selectivity ratio | 1520 |
| CSCC[C@H](NC(=O)[C@@H](N)Cc1ccc(O)cc1)C(=O)N[C@@H](CO)C(=O)N[C@@H](Cc1ccccc1)C(=O)N[C@H](C(=O)N[C@@H](CCCNC(=N)N)C(=O)N[C@@H](CCCNC(=N)N)C(=O)N[C@H](C(=O)N[C@@H](CCC(=O)O)C(=O)N[C@@H](CO)C(=O)N[C@@H](CC(=O)O)C(=O)N[C@@H](CCCCN)C(=O)N[C@@H](CC(C)C)C(=O)N[C@@H](Cc1c[nH]cn1)C(=O)N[C@@H](CO)C(=O)O)[C@@H](C)O)[C@@H](C)O | binding, dot blot | 1 h, room temperature, together with: thrombin 250 nM |  | bound fraction | ≥ 25% |

For quick reference, copied from above:
| SMILES | assay | conditions | scale | measurement | value |
| --- | --- | --- | --- | --- | --- |
| CC[C@H](C)[C@H](NC(=O)[C@@H]1CSSC[C@H](NC(=O)[C@H](Cc2ccc(O)cc2)NC(=O)CN)C(=O)N[C@@H](CO)C(=O)N[C@@H](CCCNC(=N)N)C(=O)N[C@@H](CO)C(=O)N[C@@H](Cc2ccc(O)cc2)C(=O)N2CCC[C@H]2C(=O)N2CCC[C@H]2C(=O)N[C@@H](C(C)C)C(=O)N1)C(=O)N1CCC[C@H]1C(=O)N[C@@H](CC(=O)O)C(N)=O |  |  | relative to: Ki thrombin over Ki MASP-2 | selectivity ratio | 1520 |
| CSCC[C@H](NC(=O)[C@@H](N)Cc1ccc(O)cc1)C(=O)N[C@@H](CO)C(=O)N[C@@H](Cc1ccccc1)C(=O)N[C@H](C(=O)N[C@@H](CCCNC(=N)N)C(=O)N[C@@H](CCCNC(=N)N)C(=O)N[C@H](C(=O)N[C@@H](CCC(=O)O)C(=O)N[C@@H](CO)C(=O)N[C@@H](CC(=O)O)C(=O)N[C@@H](CCCCN)C(=O)N[C@@H](CC(C)C)C(=O)N[C@@H](Cc1c[nH]cn1)C(=O)N[C@@H](CO)C(=O)O)[C@@H](C)O)[C@@H](C)O | binding, dot blot | 1 h, room temperature, together with: thrombin 250 nM |  | bound fraction | ≥ 25% |
